Assay results of several laboratories.
Lines come from different studies, so protocols differ.
Cell line: HCT-116

| SMILES | test | setting | scale | measurement | result |
| --- | --- | --- | --- | --- | --- |
| Cc1ccc(-n2c(SCC(=O)NNC(=O)Nc3ccccc3)nc3ccccc3c2=O)cc1 | annexin V-FITC/PI flow cytometry | concentration not given, 24 h | – | total apoptotic cells | 46.5% |
| N#Cc1ccc(-c2csc(NN=Cc3cccc(F)c3)n2)cc1 | colony formation | 5 µM, 24 h | – | inhibition | 5 to 50% |
| COc1cc(/C=N/n2c(C)nc3ccc(Br)cc3c2=O)ccc1O | cell growth or viability, LDH | 200 µg/mL, 24 h | – | viability | 12.8% |
| N#Cc1ccc(-c2csc(NN=Cc3c(Cl)cccc3Cl)n2)cc1 | colony formation | 5 µM, 24 h | – | inhibition | 5 to 50% |
| COc1cc(CNC(=O)CCCC/C=C/C(C)C)ccc1OCc1cn(-c2ccc(Cl)c(Cl)c2)nn1 | SRB | 10 µM, 48 h | – | growth percent | 107% |
| COc1cc(OC)c(OC)cc1C=NNc1nc(-c2ccc(C#N)cc2)cs1 | colony formation | 10 µM, 24 h | – | inhibition | 100% |
| CC12NC(=S)NC(c3c(ccc4ccccc34)O1)C2C(=O)Nc1ccccc1 (stereo not shown) | cell growth or viability, MTT | 10 µM | – | inhibition | 68.7% |
| C#C[C@@]1(O)[C@@H](CO)O[C@@H](n2cc(Cl)c3c(N)ncnc32)[C@@H]1O | cell growth or viability, SRB | 48 h | – | GI50 | 20 nM |
| C#Cc1cccc(Nc2ncnc3cc(OCCOC)c(OCCOC)cc23)c1 | cell growth or viability, MTT | 10 µM | – | inhibition | 88.3% |
| COc1cc(CNC(=O)CCCC/C=C/C(C)C)ccc1OCc1cn(-c2ccc([N+](=O)[O-])cc2)nn1 | SRB | 10 µM, 48 h | – | growth percent | 77.2% |
| Cc1ccc(C=NNc2nc(-c3ccc(C#N)cc3)cs2)cc1C | colony formation, clonogenic | 5 µM, 24 h | – | inhibition | 5 to 30% |
| CC1=C(C(=O)Nc2cccnc2)C(c2ccc3ccc4cccc5ccc2c3c45)NC(=S)N1 (stereo not shown) | cell growth or viability, MTT | 10 µM | – | inhibition | 79.3% |
| NCCC(=O)Nc1ccccc1/N=c1\cc(-c2ccc3nc(N)oc3c2)oc2ccccc12 | cell growth or viability, CCK-8 | 1 µM | – | inhibition | 78.5% |
| Cc1nc2ccccc2c(=O)n1NC(=O)CSc1nc2ccccc2c(=O)n1-c1ccccc1 | cell growth or viability, LDH | 200 µg/mL, 24 h | – | viability | 4.75% |
| CC12NC(=O)NC(c3c(ccc4ccccc34)O1)C2C(=O)Nc1cccnc1 (stereo not shown) | cell growth or viability, MTT | 10 µM | – | inhibition | 64.6% |
| COc1cc(CNC(=O)CCCC/C=C/C(C)C)ccc1OCc1cn(-c2cccc(Cl)c2)nn1 | SRB | 10 µM, 48 h | – | growth percent | 76.8% |

| SMILES | test | setting | scale | measurement | result |
| --- | --- | --- | --- | --- | --- |
| N#Cc1ccc(-c2csc(NN=Cc3sccc3Br)n2)cc1 | colony formation | 5 µM, 24 h | – | inhibition | 5 to 50% |
| O=C(O)c1cc(/N=N/c2ccc(O)c(C(=O)O)c2)ccc1O | cell viability, AO/PI counting | 48 h | – | toxic concentration | > 500 µM |
| N#Cc1ccc(-c2csc(NN=Cc3c(F)c(F)c(F)c(F)c3F)n2)cc1 | colony formation, clonogenic | 5 µM, 24 h | – | inhibition | 5 to 30% |
| Cn1c(=O)n(-c2ccc(C(C)(C)C#N)cc2)c2c3cc(-c4cnc5ccccc5c4)ccc3ncc21 | cell growth or viability, SRB | 72 h | – | GI50 | 16 nM |
| COc1cc(CNC(=O)CCCC/C=C/C(C)C)ccc1OCc1cn(-c2ccccc2OC)nn1 | SRB | 10 µM, 48 h | – | growth percent | 82.7% |
| CS(=O)(=O)N1CCN(Cc2cc3nc(-c4cccc5[nH]ncc45)nc(N4CCOCC4)c3s2)CC1 | cell growth or viability, SRB | 72 h | – | GI50 | 1700 nM |
| COc1cc([C@@H]2c3cc4c(cc3[C@@H](O[C@@H]3O[C@@H]5CO[C@@H](C)O[C@H]5[C@H](O)[C@H]3O)[C@H]3COC(=O)[C@H]23)OCO4)cc(OC)c1O | trypan blue | 100 µM, 4 h | relative to: PHF20 over mock | cell death increase | ~40% |
| CC12NC(=O)NC(c3c(ccc4ccccc34)O1)C2C(=O)Nc1ccccc1 (stereo not shown) | cell growth or viability, MTT | 10 µM | – | inhibition | 49.3% |
| N#Cc1ccc(-c2csc(NN=Cc3cc(F)cc(C(F)(F)F)c3)n2)cc1 | colony formation, clonogenic | 5 µM, 24 h | – | inhibition | 5 to 30% |
| COc1cc(CNC(=O)CCCC/C=C/C(C)C)ccc1OCc1cn(-c2ccc(C(F)(F)F)cc2)nn1 | SRB | 10 µM, 48 h | – | growth percent | 2.97 to 49.1% |
| Nc1nc(N)c(N=O)c(OCc2ccc(Cl)cc2)n1 | cell growth or viability, SRB | 72 h | – | GI50 | 52000 nM |
| COc1cc(CNC(=O)CCCC/C=C/C(C)C)ccc1OCc1cn(-c2ccc(Cl)cc2)nn1 | SRB | 10 µM, 48 h | – | growth percent | 63.7% |
| CCCCCCCCNC(=S)NCCCC[C@H](NC(=O)OCc1ccccc1)C(=O)Nc1ccccc1 | colony formation | 3D culture | – | GI50 | ~7000 nM |
| COc1cc(CNC(=O)CCCC/C=C/C(C)C)ccc1OCc1cn(-c2cc(OC)c(OC)c(OC)c2)nn1 | SRB | 10 µM, 48 h | – | growth percent | 87.1% |
| N#Cc1ccc(-c2csc(NN=Cc3ccccc3F)n2)cc1 | colony formation, clonogenic | 5 µM, 24 h | – | inhibition | 5 to 30% |

A few entries again:
| SMILES | test | setting | scale | measurement | result |
| --- | --- | --- | --- | --- | --- |
| CC1=C(C(=O)Nc2cccnc2)C(c2ccc3ccc4cccc5ccc2c3c45)NC(=S)N1 (stereo not shown) | cell growth or viability, MTT | 10 µM | – | inhibition | 79.3% |
| N#Cc1ccc(-c2csc(NN=Cc3cccc(F)c3)n2)cc1 | colony formation | 5 µM, 24 h | – | inhibition | 5 to 50% |
| COc1cc(CNC(=O)CCCC/C=C/C(C)C)ccc1OCc1cn(-c2ccccc2OC)nn1 | SRB | 10 µM, 48 h | – | growth percent | 82.7% |
| O=C(O)c1cc(/N=N/c2ccc(O)c(C(=O)O)c2)ccc1O | cell viability, AO/PI counting | 48 h | – | toxic concentration | > 500 µM |
